Measurements from different studies.
Compare with care: the assays were run in different laboratories. ± gives the spread as reported.

Compound | test | test system | setting | how to read | endpoint | result
Cc1ccc(/C=C/C(=O)O)cc1-c1cc2c(cc1C)C(C)(C)CCC2(C)C | RNA sequencing, item: Lyve1 | rat, brain | dose not given, 24 h | baseline: vehicle | log2 fold change | -0.13
CCc1cnc(NC(=O)c2cc(S(=O)(=O)N3CCOCC3)ccc2N(C)C2CCCC2)s1 | – | mouse, H1975-OR xenograft | intraperitoneal, 10 mg/kg every other day, 90 days | – | progression-free survival | 60%
CC[C@H](C)[C@@H]1NC(=O)[C@@H](N)CSSC[C@@H]2NC(=O)[C@@H]3CSSC[C@@H]4NC(=O)[C@H](Cc5ccccc5)NC(=O)CNC(=O)[C@H](C(C)C)NC(=O)[C@H](CC(C)C)NC(=O)[C@H](CSSC[C@H](NC(=O)[C@H](Cc5c[nH]c6ccccc56)NC(=O)CNC(=O)CNC(=O)[C@H](CO)NC(=O)[C@H](CO)NC1=O)C(=O)NCC(=O)N[C@@H](Cc1ccccc1)C(=O)N[C@@H](CC(=O)O)C(=O)N[C@@H](CC(C)C)C(=O)N[C@@H](Cc1c[nH]cn1)C(=O)NCC(=O)N3)NC(=O)CNC(=O)[C@H](CSSC[C@@H](C(=O)O)NC(=O)CNC(=O)[C@H]([C@@H](C)O)NC(=O)CNC(=O)[C@H](Cc1ccc(O)cc1)NC4=O)NC(=O)[C@H](CC(N)=O)NC(=O)CNC2=O | whole-cell voltage clamp | rat hippocampal neurons | up to 5 µM | – | potassium current | no effect
CC[C@H](C)[C@H](NC(=O)[C@H](CCCNC(=N)N)NC(=O)[C@H](CCC(N)=O)NC(=O)[C@H](CC(=O)O)NC(=O)[C@H](CC(C)C)NC(=O)[C@H](CC(C)C)NC(=O)[C@H](CC(N)=O)NC(=O)[C@H](Cc1ccccc1)NC(=O)[C@H](CC(=O)O)NC(=O)[C@@H](NC(=O)[C@@H](NC(=O)[C@H](CC(N)=O)NC(=O)CNC(=O)[C@H](CO)NC(C)=O)C(C)C)[C@@H](C)CC)C(=O)N[C@H](C(=O)N[C@@H](Cc1c[nH]c2ccccc12)C(=O)N[C@@H](CCC(N)=O)C(=O)N[C@@H](CC(N)=O)C(=O)N[C@@H](Cc1c[nH]c2ccccc12)C(=O)N[C@@H](Cc1ccc(O)cc1)C(=O)N[C@@H](C)C(N)=O)[C@@H](C)CC | item: HA-51 tetramer | antigen-experienced tetramer+ CD4 T cells, healthy adults, HLA-DRB1*0101 | dose not given | – | α4β7+ CCR9+ cells | 30.8%
O=C(O)CCCC(=O)O | DPPH radical scavenging | – | 250 µg/mL | – | inhibition | 64.2 ± 0.94%
COc1ccc([N+](=O)[O-])cc1NC(=O)CCC(=O)[O][Zn][O]C(=O)CCC(=O)Nc1cc([N+](=O)[O-])ccc1OC.c1ccncc1 | DPPH scavenging, absorbance | – | 31.25 µg/mL | – | inhibition | 63.8%
COc1ccc2c(c1)/C(=N\Nc1nnc3n1N=C(c1ccccc1)CS3)C(=O)N2 | angiogenesis | hen egg chorioallantoic membrane | 40 µM | baseline: DMSO vehicle | number of blood vessels | decreased
COc1ccc(F)cc1S(=O)(=O)Nc1cnc2c(c1)C(=O)NCCO2 | item: pyrophosphate | cynomolgus monkey | oral, 0.3 and 1 mg/kg, up to 2 h | – | plasma PPi concentration | increased
CC[C@H](C)[C@H](NC(=O)[C@@H](NC(=O)[C@H](CC(=O)O)NC(C)=O)[C@@H](C)O)C(=O)N[C@@H](CCCNC(=N)N)C(=O)N[C@@H](CC(C)C)C(=O)N[C@@H](CC(C)C)C(=O)N[C@@H](Cc1ccccc1)C(=O)N[C@@H](CCC(N)=O)C(=O)N[C@@H](CC(C)C)C(=O)N[C@@H](CCSC)C(=O)N[C@@H](CCCNC(=N)N)C(=O)N1CCC[C@H]1C(=O)N1CCC[C@H]1C(=O)N[C@@H](CC(N)=O)C(=O)N[C@@H](CCSC)C(=O)N[C@H](C(=O)N1CCC[C@H]1C(=O)N[C@@H](C)C(=O)N[C@H](C(=O)N[C@@H](CC(N)=O)C(=O)N[C@@H](C)C(N)=O)C(C)C)[C@@H](C)O | item: HA-02 tetramer | antigen-experienced tetramer+ CD4 T cells, healthy adults, HLA-DRB1*0101 | dose not given | – | α4β7+ CCR9− cells | 63.3%
CC[C@H](C)[C@H](NC(=O)CNC(=O)[C@H](CC(=O)O)NC(=O)[C@H](CC(C)C)NC(=O)[C@@H](NC(=O)[C@H](CC(N)=O)NC(=O)[C@H](CCC(N)=O)NC(=O)CNC(=O)[C@H](CC(C)C)NC(=O)[C@H](CCCCN)NC(=O)[C@H](CCC(=O)O)NC(=O)[C@@H](NC(=O)[C@H](CCCCN)NC(=O)[C@H](CCC(=O)O)NC(=O)[C@H](Cc1ccccc1)NC(=O)[C@H](CC(C)C)NC(=O)[C@H](CCCCN)NC(=O)[C@H](Cc1c[nH]c2ccccc12)NC(=O)[C@@H](N)CCC(=O)O)[C@@H](C)CC)[C@@H](C)CC)C(=O)N[C@H](C(=O)N[C@@H](CCCCN)C(=O)N[C@@H](CC(C)C)C(=O)NCC(=O)N1CCC[C@H]1C(=O)N[C@@H](CC(C)C)C(=O)N[C@@H](CC(C)C)C(=O)N[C@@H](C)C(=O)N[C@@H](CC(C)C)C(=O)N[C@@H](CC(C)C)C(=O)NCC(=O)N[C@@H](CCC(N)=O)C(=O)N[C@@H](CC(C)C)C(=O)N[C@H](C(=O)N[C@@H](CCC(N)=O)C(=O)N[C@H](C(=O)N[C@@H](C)C(=O)N[C@@H](CC(C)C)C(N)=O)[C@@H](C)CC)[C@@H](C)O)[C@@H](C)CC | carboxyfluorescein release, stopped-flow fluorescence | POPC vesicles 50 µM | up to 1 µM, pH 7.5, peptide/lipid 1:50 | – | time constant | 35 s

Excerpt of the above:
Compound | test | test system | setting | how to read | endpoint | result
CC[C@H](C)[C@H](NC(=O)[C@@H](NC(=O)[C@H](CC(=O)O)NC(C)=O)[C@@H](C)O)C(=O)N[C@@H](CCCNC(=N)N)C(=O)N[C@@H](CC(C)C)C(=O)N[C@@H](CC(C)C)C(=O)N[C@@H](Cc1ccccc1)C(=O)N[C@@H](CCC(N)=O)C(=O)N[C@@H](CC(C)C)C(=O)N[C@@H](CCSC)C(=O)N[C@@H](CCCNC(=N)N)C(=O)N1CCC[C@H]1C(=O)N1CCC[C@H]1C(=O)N[C@@H](CC(N)=O)C(=O)N[C@@H](CCSC)C(=O)N[C@H](C(=O)N1CCC[C@H]1C(=O)N[C@@H](C)C(=O)N[C@H](C(=O)N[C@@H](CC(N)=O)C(=O)N[C@@H](C)C(N)=O)C(C)C)[C@@H](C)O | item: HA-02 tetramer | antigen-experienced tetramer+ CD4 T cells, healthy adults, HLA-DRB1*0101 | dose not given | – | α4β7+ CCR9− cells | 63.3%
